Measured values collected from several papers.
Each line is one published result; not all experiments were run side by side. Values joined by “and” are separate records of one study, mostly repeats; a detail may differ. ± gives the spread as reported. In brackets after ≈: the same amount, converted by molar mass.
Organism: Staphylococcus aureus

CC(C)[C@H]1NC(=O)[C@H](Cc2ccc(O)cc2)NC(=O)[C@@H](C(C)C)NC(=O)[C@@H](C)NC(=O)[C@H](CO)NC(=O)[C@@H](Cc2c(-c3ccc(-c4ccc5ccccc5c4)cc3)[nH]c3ccccc23)NC(=O)[C@@H](CO)NC1=O  MIC90 (broth dilution): > 50 µM
O=c1n(CCNCCOS(=O)(=O)c2ccccc2)c(=O)n(S(=O)(=O)c2ccccc2)c(=O)n1S(=O)(=O)c1ccccc1  MLC (broth microdilution): 8 ± 2 µg/mL
CCC(=O)OCCSC[C@H](N)C(=O)N[C@H](CCN)C(=O)N[C@@H](CCN)C(=O)N[C@@H](CCN)C(=O)N[C@@H](CC(C)C)C(=O)N[C@H](Cc1ccccc1)C(=O)N[C@@H](CCN)C(=O)N[C@@H](CCN)C(=O)N[C@@H](CC(C)C)C(N)=O  MBC (ATCC 6538; 24 h, 37 °C): > 128 µM
OB(O)c1ccc(C(F)(F)F)s1  biofilm formation (crystal violet; USA300 wild type; 50 µM; baseline: wild type untreated): 32.2% and 29.7% and 36.5%
CC(C)C[C@H](NC(=O)[C@H](CC(C)C)NC(=O)[C@H](CCCCN)NC(=O)[C@H](Cc1ccccc1)NC(=O)[C@@H](NC(=O)[C@H](CCCNC(=N)N)NC(=O)[C@@H](N)CCCCN)C(C)C)C(=O)N[C@@H](CCCCN)C(=O)N[C@@H](CCCNC(=N)N)C(=O)N[C@@H](Cc1ccc(O)cc1)C(=O)N[C@@H](Cc1c[nH]c2ccccc12)C(=O)N[C@@H](CCCNC(=N)N)C(=O)N[C@@H](CCC(N)=O)C(=O)N[C@@H](CC(C)C)C(=O)N[C@@H](CCCCN)C(=O)N[C@@H](CCCCN)C(=O)N1CCC[C@H]1C(=O)N[C@H](C(=O)N[C@@H](CCCNC(=N)N)C(=O)NCCOCCOCC(=O)O)C(C)C  TNF-α and IL-6 serum levels (01, BALB/c mice, systemic infection, serum; intraperitoneal, 10 mg/kg, 18 h, dosed 2 h post-infection; baseline: vehicle): decreased
CC(C)[C@H]1NC(=O)[C@H](Cc2ccccc2)NC(=O)[C@@H](C(C)C)NC(=O)[C@@H](C)NC(=O)[C@H](CO)NC(=O)[C@@H](Cc2c(-c3ccc(-c4ccccc4)c(F)c3)[nH]c3ccccc23)NC(=O)[C@@H](CO)NC1=O  MIC90 (broth dilution): > 50 µM
O[C@]12C=C(c3nccc4c3[nH]c3ccccc34)[C@@H]3CCN(CCCC/C=C\CC1)C[C@@]31C[C@@H]3/C=C\CCCCN3[C@H]12  IC50 (growth; ATCC 43300, MRSA): 1.8 ± 0.03 µg/mL
CCc1ccn2c(C(=O)NC(C)c3ccccc3)c(C)nc2c1 (stereo not shown)  inhibition zone (microbial growth; SG511; 2 mM): 0 mm
CC[C@H](C)[C@@H]1NC(=O)[C@@H](CCCNC(=N)N)NC(=O)[C@@H](NC(=O)[C@@H](CC(C)C)NC(=O)[C@H](C)NC(=O)[C@H](C)NC(=O)[C@@H]2CCCN2C(=O)[C@@H](CC(C)C)NC(=O)[C@@H](NC(=O)[C@@H](CCCNC(=N)N)NC(=O)[C@@H](CC(C)C)NC(=O)[C@@H](CC(C)C)NC(=O)[C@@H](NC(=O)[C@@H](CCCNC(=N)N)NC(=O)[C@@H](CC(C)C)NC(=O)[C@@H](NC(=O)[C@@H](NC(=O)CNC(=O)[C@@H](CC(C)C)NC(=O)[C@@H](N)Cc2ccccc2)[C@@H](C)O)C(C)C)C(C)C)C(C)C)CSSC[C@@H](C(=O)O)NC(=O)[C@@H](CCCNC(=N)N)NC(=O)[C@@H](CCCNC(=N)N)NC(=O)[C@H](Cc2ccccc2)NC1=O  intracellular ATP level (decreased; MRSA NCTC 12493; 1 µM or above): decreased
CC[C@H](C)[C@@H]1NC(=O)[C@H](CO)NC(=O)C(C)(CCCCN)NC(=O)[C@@H]2CSSC[C@@H](C(=O)N[C@@H](Cc3ccc(O)cc3)C(N)=O)NC(=O)[C@H](CCCCN)NC(=O)[C@@H]3CSSC[C@H](NC(=O)[C@H](CCCNC(=N)N)NC(=O)C(C)(CC(C)C)NC(=O)[C@H](CC(=O)O)NC(=O)[C@H](CC(=O)O)NC(=O)[C@H](CCC(=O)O)NC(=O)[C@H](CC(N)=O)NC(=O)[C@H](Cc4c[nH]c5ccccc45)NC(=O)C(C)(CC)NC(=O)CNC(=O)[C@H](CC(N)=O)NC(=O)[C@@H](NC(=O)CNC(=O)[C@H](Cc4ccccc4)NC(=O)CN)CSSC[C@H](NC(=O)[C@H](Cc4ccc(O)cc4)NC(=O)CNC(=O)CNC(=O)[C@H](CCCCN)NC(=O)[C@H](Cc4ccc(O)cc4)NC(=O)[C@H]4CCCN4C(=O)[C@@H]4CCCN4C1=O)C(=O)N[C@@H](C)C(=O)N[C@@H](CCCCN)C(=O)N1CCC[C@@H]1C(=O)NCC(=O)N[C@@H](Cc1ccccc1)C(=O)N[C@@H](C(C)C)C(=O)N3)C(=O)N[C@@H](Cc1c[nH]cn1)C(=O)NC(C)(C)C(=O)N[C@@H](Cc1c[nH]cn1)C(=O)N2 (stereo partly shown)  MBC (467; 24 h, 37 °C, 99.9% killing): 16 µM (≈ 71.4 µg/mL)
CCCNC(=O)[C@H](Cc1ccc(O)cc1)NC(=O)[C@@H](NC(=O)[C@H](NC(=O)[C@H](NC(=O)[C@H](CC(N)=O)NC(=O)[C@@H](Cc1ccc(O)cc1)NC(=O)[C@@H](CC(C)C)NC)c1ccc(O)cc1)c1ccc(O)cc1)c1ccc(O)cc1  IC50 (bacterial growth): > 40 µM
CC[C@H](C)[C@@H]1NC(=O)[C@H](CO)NC(=O)[C@H](CCCCN)NC(=O)[C@@H]2CSSC[C@@H](C(=O)N[C@@H](Cc3ccc(O)cc3)C(N)=O)NC(=O)[C@H](CCCCN)NC(=O)[C@@H]3CSSC[C@H](NC(=O)[C@H](CCCNC(=N)N)NC(=O)[C@H](CC(C)C)NC(=O)[C@H](CC(=O)O)NC(=O)[C@H](CC(=O)O)NC(=O)[C@H](CCC(=O)O)NC(=O)[C@H](CC(N)=O)NC(=O)[C@H](Cc4c[nH]c5ccccc45)NC(=O)C(C)(CC)NC(=O)CNC(=O)[C@H](CC(N)=O)NC(=O)[C@@H](NC(=O)CNC(=O)[C@H](Cc4ccccc4)NC(=O)CN)CSSC[C@H](NC(=O)[C@H](Cc4ccc(O)cc4)NC(=O)CNC(=O)CNC(=O)[C@H](CCCCN)NC(=O)[C@H](Cc4ccc(O)cc4)NC(=O)[C@H]4CCCN4C(=O)[C@@H]4CCCN4C1=O)C(=O)N[C@@H](C)C(=O)N[C@@H](CCCCN)C(=O)N1CCC[C@@H]1C(=O)NCC(=O)N[C@@H](Cc1ccccc1)C(=O)N[C@@H](C(C)C)C(=O)N3)C(=O)N[C@@H](Cc1c[nH]cn1)C(=O)N[C@@H](CC(N)=O)C(=O)N[C@@H](Cc1c[nH]cn1)C(=O)N2 (stereo partly shown)  MBC (473; 24 h, 37 °C, 99.9% killing): 2 µM (≈ 8.92 µg/mL)
CC[C@H](C)[C@H](NC(=O)[C@H](CC(C)C)NC(=O)[C@H](CC(=O)O)NC(=O)[C@H](CCCNC(=N)N)NC(=O)[C@H](Cc1c[nH]c2ccccc12)NC(=O)[C@@H](N)CC(C)C)C(=O)N[C@@H](CS)C(=O)N[C@@H](CC(C)C)C(=O)N[C@@H](CS)C(=O)N[C@@H](CCCNC(=N)N)C(=O)N[C@@H](CC(N)=O)C(=O)N[C@@H](CCCNC(=N)N)C(=O)N[C@@H](CCCNC(=N)N)C(=O)N[C@@H](CS)C(=O)N[C@@H](CC(N)=O)C(=O)N[C@@H](CCCNC(=N)N)C(=O)NCC(=O)N[C@@H](CCC(N)=O)C(=O)N[C@@H](CC(C)C)C(=O)N[C@@H](Cc1ccccc1)C(=O)N1CCC[C@H]1C(=O)NCC(=O)N[C@@H](Cc1c[nH]c2ccccc12)C(=O)N[C@@H](CS)C(=O)N1CCC[C@H]1C(=O)NCC(=O)N[C@@H](Cc1c[nH]c2ccccc12)C(=O)N[C@@H](Cc1c[nH]c2ccccc12)C(=O)N[C@@H](CC(C)C)C(=O)N[C@@H](CCCNC(=N)N)C(=O)N[C@@H](CS)C(=O)N[C@@H](CS)C(=O)N[C@@H](CCCNC(=N)N)C(=O)N[C@@H](CCCNC(=N)N)C(N)=O  bactericidal rate (colony count; PBS; 20 µg/mL, 2 h): 96.3%
